Measured values collected from several papers.
Protocols differ between the studies behind these lines. ± marks the error that the study gave.
T1: G-quadruplex DNA, G-quadruplex (Homo sapiens); CGGGCCGCGGGAGGAGGGA
T2: RNA aptamer GAA^A junction to GGG^A; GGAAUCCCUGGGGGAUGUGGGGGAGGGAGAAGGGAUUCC

SMILES	target	test	test system	setting	scale	endpoint	result
COc1cc(-c2cnc3nc2NCCCNS(=O)(=O)c2cccc(c2)N3)ccc1F	EPHA4 (Homo sapiens, UniProt P54764)	differential scanning fluorimetry	–	10 µM	higher = stronger binding	thermal shift ΔTm	3.6 K
CCC1=C(C)c2cc3[nH]c(cc4nc(cc5[nH]c(cc1n2)c(C)c5CCC(=O)NCCOCCOCC(=O)NCCN(CC(=O)N[C@H](CCCCN)C(=O)N[C@H](CCCCN)C(N)=O)C(=O)Cn1cnc2c(=O)[nH]c(N)nc21)C(CCC(=O)O)=C4C)c(C)c3CC	T1, G-quadruplex DNA, G-quadruplex (Homo sapiens)	FRET melting	–	pH 7.4, KCl 50 mM	–	binding	binds weakly
CC[C@H](C)[C@H](NC(=O)[C@H](CCC(=O)O)NC(=O)[C@H](CO)NC(=O)[C@@H](NC(=O)[C@@H](N)CO)C(C)C)C(=O)N[C@@H](CCC(N)=O)C(=O)N[C@@H](CC(C)C)C(=O)N[C@@H](CCSC)C(=O)N[C@@H](Cc1c[nH]cn1)C(=O)N[C@@H](CC(N)=O)C(=O)N[C@@H](CC(C)C)C(=O)NCC(=O)N[C@@H](CCCCN)C(=O)N[C@@H](Cc1c[nH]cn1)C(=O)N[C@@H](CC(C)C)C(=O)N[C@@H](CC(N)=O)C(=O)N[C@@H](CO)C(=O)N[C@@H](CCSC)C(=O)N[C@@H](CCC(=O)O)C(=O)N[C@@H](CCCNC(=N)N)C(=O)N[C@H](C(=O)N[C@@H](CCC(=O)O)C(=O)N[C@@H](Cc1c[nH]c2ccccc12)C(=O)N[C@@H](CC(C)C)C(=O)N[C@@H](CCCNC(=N)N)C(=O)N[C@@H](CCCCN)C(=O)N[C@@H](CCCCN)C(=O)N[C@@H](CC(C)C)C(=O)N[C@@H](CCC(N)=O)C(=O)N[C@@H](CC(=O)O)C(=O)N[C@H](C(=O)N[C@@H](Cc1c[nH]cn1)C(=O)N[C@@H](CC(N)=O)C(=O)N[C@@H](Cc1ccccc1)C(=O)N[C@@H](CCCCNC(=O)c1ccc2c(c1)C1(OC2=O)c2ccc(N(C)C)cc2Oc2cc(N(C)C)ccc21)C(N)=O)C(C)C)C(C)C	PTH1R (Homo sapiens, UniProt Q03431)	binding, NanoBRET	–	pH 6.5, MES buffer	–	kon	420000 ± 80000 M⁻¹ s⁻¹
CC(=O)NCCN(CC(=O)NCCN(CC(=O)NCCN(CC(=O)NCCC(N)=O)C(=O)[C@@H](N)Cc1ccccc1)C(=O)[C@@H](N)CCCNC(=N)N)C(=O)[C@@H](N)Cc1ccccc1	HIV-1 TAR RNA	–	–	25 °C	–	binding free energy ΔG°	-8.37 ± 0.598 kcal/mol
CN1C=C/C(=C/C=C/c2sc3ccccc3[n+]2CC(=O)NCCOCCOCCOCCNC(=O)CCCC[C@@H]2SC[C@@H]3NC(=O)N[C@@H]32)c2ccccc21	T2, RNA aptamer GAA^A junction to GGG^A	fluorescence titration	–	–	–	binding	binds weakly
C=C[C@]12CCC(=O)C=C1CC[C@H]1[C@@H]3CC[C@H](C(C)=O)[C@@]3(C)CC[C@@H]12	Membrane progesterone receptor epsilon (Paqr9, Mus musculus, UniProt Q6TCG2)	TIRF imaging	GFP-tagged cells	100 nM, 20 min	baseline: vehicle	cell surface stability	no effect
CC(=O)NCCN(CCC(=O)NCCN(CCC(=O)NCCN(CCC(=O)NCCC(N)=O)C(=O)[C@@H](N)Cc1ccccc1)C(=O)[C@@H](N)CCCNC(=N)N)C(=O)[C@@H](N)CCCNC(=N)N	HIV-1 TAR RNA	–	–	concentration not given	–	heat capacity change ΔCp	-2.81 ± 0.28 kJ/mol/K
CC1=CC(=O)CC(C)(C)C1(O)C=CC(C)O (stereo not drawn)	Alpha-mannosidase (Canavalia ensiformis, UniProt C0HJB3)	binding, surface plasmon resonance	–	25 °C	–	koff	0.00441 s⁻¹
C=CCC(=N)NCCC[C@H](N)C(=O)O	Nos1 (Rattus norvegicus, UniProt P29476)	NMDA-evoked cGMP accumulation	immature rat hippocampal slices	–	–	Hill slope	1.1 ± 0.1
CS(=O)(=O)CCC1NC(=O)C(Cc2ccco2)NC(=O)C(CC2CC2)NC(=O)C=CC(=O)NC(C(N)=O)CCNC1=O (stereo not drawn)	PIM1 (Homo sapiens, UniProt P11309)	DNA-templated library selection	–	one selection round	–	enrichment factor	1.1
CC1=[N+]2N=C(c3ccccc3)[O][Pd-2]2([Cl])[O+]=C2Oc3ccccc3C=C21 (stereo not drawn)	calf thymus DNA	ethidium bromide displacement	–	–	–	fluorescence quenching	55.4%
CCCCCCCCCCCC(=O)Nc1ccc(OC)nc1C	CES1 (Homo sapiens, UniProt P23141)	substrate	–	50 µM, pH 8, 37 °C, enzyme purity 25%	–	specific activity	19 pmol/min/µg

A few entries again:
SMILES	target	test	test system	setting	scale	endpoint	result
C=CCC(=N)NCCC[C@H](N)C(=O)O	Nos1 (Rattus norvegicus, UniProt P29476)	NMDA-evoked cGMP accumulation	immature rat hippocampal slices	–	–	Hill slope	1.1 ± 0.1
